{"data": "Published values from different studies", "note": "Every numbered part comes from another study and shows a few of its results, in no order.", "chain of UniProt P42679 (whole entry, looked up)": "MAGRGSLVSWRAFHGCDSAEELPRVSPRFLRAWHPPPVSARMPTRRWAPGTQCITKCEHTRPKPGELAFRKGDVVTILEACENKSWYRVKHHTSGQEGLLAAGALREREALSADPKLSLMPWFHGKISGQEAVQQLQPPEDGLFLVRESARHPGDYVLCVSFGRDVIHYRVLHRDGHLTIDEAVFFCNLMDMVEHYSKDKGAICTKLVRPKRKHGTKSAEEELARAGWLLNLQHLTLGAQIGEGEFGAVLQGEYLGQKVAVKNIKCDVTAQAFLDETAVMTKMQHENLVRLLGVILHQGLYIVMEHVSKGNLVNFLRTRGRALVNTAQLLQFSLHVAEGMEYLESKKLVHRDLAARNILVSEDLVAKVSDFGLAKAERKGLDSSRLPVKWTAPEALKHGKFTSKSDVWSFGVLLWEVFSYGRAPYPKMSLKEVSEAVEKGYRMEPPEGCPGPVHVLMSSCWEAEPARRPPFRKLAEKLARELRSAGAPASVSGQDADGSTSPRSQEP", "chain of UniProt P54753 (whole entry, looked up)": "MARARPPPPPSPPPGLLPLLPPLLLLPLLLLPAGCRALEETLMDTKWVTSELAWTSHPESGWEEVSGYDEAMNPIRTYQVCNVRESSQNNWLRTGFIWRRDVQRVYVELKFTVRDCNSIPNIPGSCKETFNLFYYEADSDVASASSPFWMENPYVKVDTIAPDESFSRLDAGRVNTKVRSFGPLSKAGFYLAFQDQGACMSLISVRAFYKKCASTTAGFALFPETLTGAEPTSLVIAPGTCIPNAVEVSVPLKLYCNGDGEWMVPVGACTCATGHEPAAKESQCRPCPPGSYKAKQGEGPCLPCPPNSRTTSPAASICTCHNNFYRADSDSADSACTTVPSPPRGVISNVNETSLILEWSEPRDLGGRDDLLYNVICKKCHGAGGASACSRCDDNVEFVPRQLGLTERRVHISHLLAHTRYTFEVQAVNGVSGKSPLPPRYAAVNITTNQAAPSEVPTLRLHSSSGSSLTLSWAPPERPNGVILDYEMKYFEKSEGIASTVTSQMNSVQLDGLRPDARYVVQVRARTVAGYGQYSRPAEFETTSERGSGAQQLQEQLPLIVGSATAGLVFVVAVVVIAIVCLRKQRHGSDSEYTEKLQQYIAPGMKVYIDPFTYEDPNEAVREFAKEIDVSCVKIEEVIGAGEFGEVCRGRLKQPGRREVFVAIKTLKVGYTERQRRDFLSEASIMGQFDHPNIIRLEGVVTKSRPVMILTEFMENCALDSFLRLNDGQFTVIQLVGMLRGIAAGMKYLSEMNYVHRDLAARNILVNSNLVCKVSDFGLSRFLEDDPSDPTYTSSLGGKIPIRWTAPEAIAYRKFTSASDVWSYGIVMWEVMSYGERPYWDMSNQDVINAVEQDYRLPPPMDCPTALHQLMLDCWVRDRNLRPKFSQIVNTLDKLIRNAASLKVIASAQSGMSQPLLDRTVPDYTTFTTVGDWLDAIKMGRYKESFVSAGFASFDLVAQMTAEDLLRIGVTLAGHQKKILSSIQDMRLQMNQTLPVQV", "chain of UniProt O43353 (whole entry, looked up)": "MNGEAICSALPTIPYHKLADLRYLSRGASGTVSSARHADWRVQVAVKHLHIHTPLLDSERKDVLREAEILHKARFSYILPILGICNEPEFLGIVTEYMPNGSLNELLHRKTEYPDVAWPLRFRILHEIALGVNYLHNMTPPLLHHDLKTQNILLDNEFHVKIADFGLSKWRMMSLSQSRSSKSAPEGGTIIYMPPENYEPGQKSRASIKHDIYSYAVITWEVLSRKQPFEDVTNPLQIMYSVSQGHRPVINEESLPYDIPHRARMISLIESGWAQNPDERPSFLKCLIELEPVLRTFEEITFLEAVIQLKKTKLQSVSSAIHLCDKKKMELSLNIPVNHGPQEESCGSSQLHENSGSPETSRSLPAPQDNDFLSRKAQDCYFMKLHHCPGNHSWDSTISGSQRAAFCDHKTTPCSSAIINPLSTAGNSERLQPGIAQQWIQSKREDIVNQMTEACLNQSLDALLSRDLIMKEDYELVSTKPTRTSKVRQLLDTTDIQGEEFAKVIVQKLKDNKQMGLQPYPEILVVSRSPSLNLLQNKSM", "chain of UniProt Q92918 (whole entry, looked up)": "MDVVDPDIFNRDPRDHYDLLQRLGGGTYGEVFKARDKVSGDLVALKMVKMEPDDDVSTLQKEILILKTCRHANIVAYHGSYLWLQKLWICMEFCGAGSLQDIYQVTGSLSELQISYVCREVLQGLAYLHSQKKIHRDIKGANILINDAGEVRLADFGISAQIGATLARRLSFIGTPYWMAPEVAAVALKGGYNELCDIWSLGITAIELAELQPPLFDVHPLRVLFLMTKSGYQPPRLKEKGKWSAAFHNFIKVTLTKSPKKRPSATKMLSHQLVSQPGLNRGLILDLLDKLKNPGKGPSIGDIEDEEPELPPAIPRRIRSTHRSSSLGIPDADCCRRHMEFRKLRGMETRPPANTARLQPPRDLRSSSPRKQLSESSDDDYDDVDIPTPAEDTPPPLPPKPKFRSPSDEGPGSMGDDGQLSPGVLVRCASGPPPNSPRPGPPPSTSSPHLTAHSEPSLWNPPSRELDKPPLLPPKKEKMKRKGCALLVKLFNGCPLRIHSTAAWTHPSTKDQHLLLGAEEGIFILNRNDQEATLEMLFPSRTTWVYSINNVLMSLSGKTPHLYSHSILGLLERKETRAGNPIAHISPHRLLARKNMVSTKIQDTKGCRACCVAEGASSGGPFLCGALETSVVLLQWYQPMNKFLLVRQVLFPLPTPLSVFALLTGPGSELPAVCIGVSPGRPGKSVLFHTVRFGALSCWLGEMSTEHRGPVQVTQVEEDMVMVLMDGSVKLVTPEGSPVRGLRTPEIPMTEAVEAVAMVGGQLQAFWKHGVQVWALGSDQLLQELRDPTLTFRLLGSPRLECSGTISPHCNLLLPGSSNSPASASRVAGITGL"}
{"data": "Set 1", "cell line": "mouse MPNST tumor cells", "method": "high-content nuclear imaging", "item": "cell number", "concentration": "10 µM", "time": "12 h", "setting": "mean of 2 replicates", "reference": "plate mean", "direction": "higher = more cells"}
{"SMILES": "CSc1ccc2c(c1)N(CCC1CCCCN1C)c1ccccc1S2 (stereo not drawn)", "nuclei count [z-score]": -7.38}
{"SMILES": "COc1ccc(N(C)c2nc(C)nc3ccccc23)cc1", "nuclei count [z-score]": -3.51}
{"SMILES": "C[C@@H]1CN(c2cc(-c3n[nH]c4ccc(OC5(C)CC5)cc34)ncn2)C[C@H](C)O1", "nuclei count [z-score]": 0.0143}
{"SMILES": "CCCCCCCCc1ccc(CCC(N)(CO)CO)cc1", "nuclei count [z-score]": -4.95}
{"SMILES": "Fc1ccccc1CNCc1ccc(-c2ccnc3[nH]ccc23)cc1", "nuclei count [z-score]": 0.459}
{"SMILES": "COc1cc(NC(=O)c2ccccn2)ccc1Cl", "nuclei count [z-score]": 0.0454}
{"data": "Set 2", "target": "Casein kinase I isoform alpha (CSNK1A1, Homo sapiens, UniProt P48729)", "observed": "enzyme activity", "mode": "inhibitor", "concentration": "0.5 µM", "reference": "control", "chain of UniProt P48729 (whole entry, looked up)": "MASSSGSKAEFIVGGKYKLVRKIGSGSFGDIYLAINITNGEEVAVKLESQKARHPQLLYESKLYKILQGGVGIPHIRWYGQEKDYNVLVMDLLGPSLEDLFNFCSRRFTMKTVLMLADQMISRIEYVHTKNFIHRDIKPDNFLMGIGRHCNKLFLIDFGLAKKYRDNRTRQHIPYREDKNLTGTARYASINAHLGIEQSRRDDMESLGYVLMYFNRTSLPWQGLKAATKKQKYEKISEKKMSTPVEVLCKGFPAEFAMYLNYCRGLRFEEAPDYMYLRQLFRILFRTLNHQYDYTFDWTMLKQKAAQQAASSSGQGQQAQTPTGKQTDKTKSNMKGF"}
{"Structure (SMILES)": "COc1cc2nccc(Oc3ccc(NC(=S)NC(=O)c4ccccc4C)cc3)c2cc1OC", "remaining activity [%]": 96.3}
{"Structure (SMILES)": "O=C(CCCc1ccc(-c2ccccc2F)cc1)Nc1ccc(O)cc1", "remaining activity [%]": 101}
{"Structure (SMILES)": "NCCNc1ncc(C(N)=O)c(Nc2cccc(C(F)(F)F)c2)n1", "remaining activity [%]": 74.8}
{"Structure (SMILES)": "COc1ccc(CNC(=O)Nc2ncc([N+](=O)[O-])s2)cc1", "remaining activity [%]": 92.4}
{"Structure (SMILES)": "CN(C)c1ccc(C=C2C(=O)Nc3ccccc32)cc1", "remaining activity [%]": 105}
{"Structure (SMILES)": "Cc1ccc(NC(=O)c2ccc(CN3CCN(C)CC3)cc2)cc1Nc1nc(-c2cccnc2)cs1", "remaining activity [%]": 98.5}
{"Structure (SMILES)": "N#CC(C#N)=C(N)/C(C#N)=C/c1ccc(O)cc1", "remaining activity [%]": 85}
{"Structure (SMILES)": "O=C1NC(=O)C(c2cn(CCCn3ccnc3)c3ccccc23)=C1Nc1ccccc1", "remaining activity [%]": 102}
{"Structure (SMILES)": "Cc1cccc(-c2[nH]c(C(C)(C)C)nc2-c2ccc3c(c2)OCO3)n1", "remaining activity [%]": 96.5}
{"Structure (SMILES)": "O=C(Nc1cccc(Nc2cc(Nc3cccc(C(F)(F)F)c3)ncn2)c1)C1CC1", "remaining activity [%]": 102}
{"Structure (SMILES)": "O=c1c2ccccc2[nH]c(=S)n1CCN1CCC(=C(c2ccc(F)cc2)c2ccc(F)cc2)CC1", "remaining activity [%]": 106}
{"Structure (SMILES)": "COc1cc2ncnc(Nc3ccc(Oc4ccccc4)cc3)c2cc1OC", "remaining activity [%]": 98.2}
{"Structure (SMILES)": "Cn1c2ccccc2c2c3c(c4c5ccccc5n(CCC#N)c4c21)CNC3=O", "remaining activity [%]": 75.4}
{"Structure (SMILES)": "COc1ccc(C(=O)Nc2sc3c(c2C(N)=O)CCCC3)cc1OC", "remaining activity [%]": 108}
{"Structure (SMILES)": "Cn1sc(=O)n(Cc2ccccc2)c1=O", "remaining activity [%]": 99.5}
{"data": "Set 3", "SMILES": "CN([C@@H]1CCc2c(CC(=O)O)c3cc(S(C)(=O)=O)ccc3n2C1)S(=O)(=O)c1ccc(F)cc1", "observed": "cell-free assay", "method": "competition with immobilised ligand", "concentration": "1 µM"}
{"target": "Tyrosine-protein kinase ABL1, non-phosphorylated (ABL1, Homo sapiens, UniProt P00519, T315I)", "remaining binding [%]": 88}
{"target": "EPHB3 (Homo sapiens, UniProt P54753)", "remaining binding [%]": 90}
{"target": "MATK (Homo sapiens, UniProt P42679)", "remaining binding [%]": 100}
{"target": "RIPK2 (Homo sapiens, UniProt O43353)", "remaining binding [%]": 100}
{"target": "MAP4K1 (Homo sapiens, UniProt Q92918)", "remaining binding [%]": 100}
{"data": "Set 4", "cell line": "HaCaT", "concentration": "100 µM", "time": "36 h"}
{"Compound": "CC1=C(/C=C/C(C)=C/C=C/C(C)=C/C(=O)O)C(C)(C)CCC1", "viability": "61%"}
{"Compound": "Cc1ccc(S(=O)(=O)NC(=O)NN2CC3CCC[C@@H]3C2)cc1 (stereo in doubt)", "viability": "85.5%"}
{"Compound": "Cc1cc(-n2c(=O)[nH]c(=O)n(C)c2=O)ccc1Oc1ccc(SC(F)(F)F)cc1", "viability": "47.6%"}
{"Compound": "CCC(=O)c1c(O)cc(O)cc1O", "viability": "86%"}
{"note": "Repeated from above (set 1):"}
{"SMILES": "CSc1ccc2c(c1)N(CCC1CCCCN1C)c1ccccc1S2 (stereo not drawn)", "nuclei count [z-score]": -7.38}
{"SMILES": "CCCCCCCCc1ccc(CCC(N)(CO)CO)cc1", "nuclei count [z-score]": -4.95}
{"SMILES": "Fc1ccccc1CNCc1ccc(-c2ccnc3[nH]ccc23)cc1", "nuclei count [z-score]": 0.459}
{"SMILES": "COc1ccc(N(C)c2nc(C)nc3ccccc23)cc1", "nuclei count [z-score]": -3.51}
{"SMILES": "COc1cc(NC(=O)c2ccccn2)ccc1Cl", "nuclei count [z-score]": 0.0454}
